# Experimental data from different studies.
# Lines come from different studies, so protocols differ. Values joined by “and” are separate records of one study, mostly repeats; a detail may differ. ± marks the error that the study gave.
SMILES,test,system,setting,how to read,endpoint,value
[11CH3]Oc1ccc(NC(=O)c2cc([N+](=O)[O-])ccc2Cl)cc1,,heparinized rat blood,5 min,,intact radiotracer,52%
Clc1ccc(-c2ccccc2)cc1,,"Sprague-Dawley rats, female, serum","inhalation, 23 µg/rat, 0 h after exposure",,potassium,6 ± 1 mmol/L
O=S(=O)(Nc1ccccc1)c1ccc(NC(=S)Nc2ccccc2)cc1,measured: BA%,"male mouse, blood","oral, 20 mg/kg daily, 14 days",,blood cell fraction,0.05%
CCc1ccc(CC/C=C/c2ccc3c(c2)C(=O)CC3)cc1,,"Sprague-Dawley rat, male, serum","oral, 120 mg/kg/day, 14 days",,total protein,52.9 g/L
CN1CCN(S(=O)(=O)c2cc([N+](=O)[O-])ccc2N(CCOS(C)(=O)=O)CCOS(C)(=O)=O)CC1,,"NOD/SCID mouse, naive, blood","intraperitoneal, 18.8 mg/kg, week 1",,hemoglobin,160 g/L and 172 g/L and 154 g/L
C[C@@H]1NC(=O)[C@H](CCCCNC(=O)CO/N=C/C(=O)NCCCC[C@@H]2NC(=O)[C@@H](Cc3ccccc3)NC(=O)[C@H](CC(=O)O)NC(=O)CNC(=O)[C@H](CCCNC(=N)N)NC2=O)NC(=O)CNC(=O)[C@@H]2CCCN2C(=O)[C@H](CCCCNC(=O)CO/N=C/C(=O)NCCCC[C@@H]2NC(=O)[C@@H](Cc3ccccc3)NC(=O)[C@H](CC(=O)O)NC(=O)CNC(=O)[C@H](CCCNC(=N)N)NC2=O)NC(=O)[C@H](CCCCNC(=O)CCNC(=O)CCNC(=O)CCNC(=O)[C@H](CCCCN)NC(=O)[C@H](Cc2ccccc2)NC(=O)CNC(=O)CN2CCCNCCNCCCNCC2)NC(=O)[C@H](CCCCNC(=O)CO/N=C/C(=O)NCCCC[C@@H]2NC(=O)[C@@H](Cc3ccccc3)NC(=O)[C@H](CC(=O)O)NC(=O)CNC(=O)[C@H](CCCNC(=N)N)NC2=O)NC(=O)CNC(=O)[C@@H]2CCCN2C(=O)[C@H](CCCCNC(=O)CO/N=C/C(=O)NCCCC[C@@H]2NC(=O)[C@@H](Cc3ccccc3)NC(=O)[C@H](CC(=O)O)NC(=O)CNC(=O)[C@H](CCCNC(=N)N)NC2=O)NC1=O [copper-64 labelled],RP-HPLC,mouse serum,"24 h, 37 °C",,intact fraction,85.3%
N#C/N=C1\SCCN1Cc1ccc(Cl)nc1,,soil,"56 days, nominal 0.12",,concentration,0 mg/kg dry soil
CC(C)C[C@H](NC(=O)[C@H](CCCCN)NC(=O)OCC1c2ccccc2-c2ccccc21)C(=O)N[C@H](C(=O)N[C@@H](Cc1ccccc1)C(=O)N[C@@H](Cc1ccccc1)C(=O)N[C@@H](CCCCN)C(=O)NCC(=O)N[C@@H](Cc1ccccc1)C(=O)N[C@@H](C)C(=O)N[C@@H](Cc1c[nH]c2ccccc12)C(=O)N[C@@H](CC(N)=O)C(=O)N[C@H](C(=O)N[C@H]1CSSC[C@@H](C(=O)N[C@@H](Cc2c[nH]cn2)C(=O)N[C@@H](CCCNC(=N)N)C(=O)N[C@@H](CCCNC(=N)N)C(=O)N[C@@H](C)C(=O)N[C@@H](CC(N)=O)C(N)=O)NC(=O)[C@H](C(C)C)NC(=O)[C@H](CCCNC(=N)N)NC(=O)[C@H](C(C)C)NC(=O)CNC(=O)[C@H](CC(N)=O)NC(=O)[C@H](CCCNC(=N)N)NC(=O)[C@H](Cc2ccc(O)cc2)NC(=O)[C@H](C(C)C)NC1=O)C(C)C)C(C)C,,ICR mouse,"ip, 10 mg/kg",direction not given,group interaction score,0
C[C@]1(CO)Cc2ncn(-c3ccc(C#N)c(Cl)c3)c2C(=O)O1,,"human, Chinese, plasma","80 mg single dose, geometric mean",,AUC(0-inf),23.7 µM·h
CN1CC[C@@H](c2c(O)cc(O)c3c(=O)cc(-c4ccc(C(F)(F)F)cc4Cl)oc23)[C@@H]1CO,measured: Hypotension,AML,"oral, 100 mg, intermittent dosing",,patients with adverse event,0%
N#Cc1ccc(N2CCN(Cc3ccc(COc4cccc5c4CN([C@H]4CCC(=O)NC4=O)C5=O)cc3)CC2)c(F)c1,population PK model,human,"oral, dose not given, BLQ concentrations excluded",,central volume,434 L
C=CCNc1c(O)cc2c(O)c1C[C@@H](C)C[C@H](OC)[C@H](O)[C@@H](C)/C=C(\C)[C@H](OC(N)=O)[C@@H](OC)/C=C\C=C(/C)C(=O)N2,,unresectable or metastatic sarcoma,"intravenous, 150 mg/m^2, grade 3-4 lab change",,patients with lipase increase,0%
CC(=O)c1c(C)c2cnc(Nc3ccc(C4CCN(CCS(C)(=O)=O)CC4)cn3)nc2n(C2CCCC2)c1=O,,"human patients, plasma","oral, 100 mg twice daily, day 21 multiple doses",,AUC(0-inf),1800 ng·h/mL
C=CC(=O)N1CC[C@H](n2nc(C#Cc3cc(OC)cc(OC)c3)c3c(N)ncnc32)C1,,human patients,"oral, dose not given, QD regimen, adverse drug reaction, together with: ferric citrate hydrate",,"decreased appetite, any grade",100%
